Published values collected from several papers.
Protocols differ between the studies behind these lines.

CCOc1c([C@H](C)n2nc(C)c3c(N)ncnc32)cc(Cl)c(F)c1[C@@H]1CNC(=O)C1
patients with HR above 100 bpm (ECG; previously treated B-cell malignancy patients; oral, 10 mg once daily, baseline below thresholds): 0%

FC(F)(F)c1ccc(CNc2ccc(Cc3c[nH]c4ncc(Cl)cc34)cn2)cn1
patients with treatment-related adverse event (item: gastroesophageal reflux disease; non-TGCT solid tumour patients; oral, 1000 mg/day, grade 3 or higher): 0%

NC(=O)N1c2ccccc2C=Cc2ccccc21
patients with Toothache (male patients; oral, dose not given, on-treatment adverse events): 7%

COc1cc2nccc(Oc3ccc(NC(=O)c4cc5c(n(-c6ccccc6)c4=O)CCCC5=O)nc3)c2cc1OC
patients with drug-related serious TEAEs (patients with relapsed/refractory AML; oral, 10 mg once daily): 14.3%

C=CC(=O)Nc1cc(Nc2nccc(-c3cn(C)c4ccccc34)n2)c(OC)cc1N(C)CCN(C)C
patients with adverse events (item: treatment-related grade ≥3 Neutropenia; EGFR-mutant MET-altered NSCLC; oral, dose not given, all): 3%

Cc1cc(NC2CCN(C(=O)OC3CCN(C(=O)/C=C/CN(C)C)C3)CC2)n2ncc(C(C)C)c2n1 (stereo not drawn)
patients with TEAE (CTCAE v4.0, item: Headache; patients with advanced solid tumours; oral, dose not given, all schedules, grade 3 or higher): 0%

CNC(=O)c1ccc(-c2cnc3ncc(Cc4ccc5ncccc5c4)n3n2)cc1F
patients with adverse event (item: Vomiting, all grades; cancer patients; oral, dose not given, dose escalation, any causality): 40%

C=CC(=O)NC1CCN(c2ncc3ncnc(Nc4ccc(Oc5ccc6c(c5)ncn6C)c(C)c4)c3n2)CC1
patients with Flatulence (male patients; oral, dose not given, treatment-related adverse events): 0%

CNC(=O)c1cc(Oc2ccc(NC(=O)Nc3cc(C(C)(C)C)nn3-c3ccc4ncccc4c3)c(F)c2)ccn1
patients with grade 1 cardiac disorders (patients; oral, dose not given, cycles 1 and 2, Low AUC subgroup): 7%

C[C@@H](c1ccc2nccn2c1)n1nnc2ncc(-c3cnn(C)c3)nc21
patients with treatment-related AEs (item: Pain grade ≥3; EGFR-mutant MET-altered NSCLC; oral, study): 0%

O=C(Nc1nc2cccc(-c3ccc(CN4CCS(=O)(=O)CC4)cc3)n2n1)C1CC1
patients with administration site disorders (rheumatoid arthritis patients; oral, 100 mg twice daily, 4 weeks, regardless of relatedness): 8.3%

COc1ccc([C@@H](O)c2cc(-c3ncnc4cc(N5CCOCC5)ccc34)c(F)cc2Cl)nn1
patients with diarrhea (locally advanced rectal cancer patients; 50 mg, drug-related adverse events, together with: capecitabine and radiotherapy): 100%

COc1cc(Nc2ncc3c(n2)-c2ccc(Cl)cc2C(c2c(F)cccc2OC)=NC3)ccc1C(=O)O
patients with adverse event (item: Alopecia, all grades; cancer patients, phase 1/2; oral, dose not given, together with: pembrolizumab): 21%

C[C@@H](Nc1cc(F)cc(F)c1)c1cc(C(=O)N(C)C)cc2c(=O)cc(N3CCOCC3)oc12
patients discontinuing for AE (CTCAE v4, item: abdominal pain; patients with advanced solid tumours; oral, dose not given, phase I dose finding): 1.6%

Cc1cc(-c2nnc(N)nc2-c2ccc(F)cc2)cc(Cl)n1
patients with immune-mediated AE (item: Hyperthyroidism; IO-naive colorectal cancer patients; oral, dose not given, treatment-related, grade 1): 0%

A few entries again:
C[C@@H](Nc1cc(F)cc(F)c1)c1cc(C(=O)N(C)C)cc2c(=O)cc(N3CCOCC3)oc12
patients discontinuing for AE (CTCAE v4, item: abdominal pain; patients with advanced solid tumours; oral, dose not given, phase I dose finding): 1.6%

Cc1cc(-c2nnc(N)nc2-c2ccc(F)cc2)cc(Cl)n1
patients with immune-mediated AE (item: Hyperthyroidism; IO-naive colorectal cancer patients; oral, dose not given, treatment-related, grade 1): 0%
